Measured values from different studies.
± marks the error that the study gave.
expR: expR (Pectobacterium carotovorum, UniProt Q4KS34)

SMILES | target | assay | system | setting | how to read | endpoint | result
C#CC[C@@H](N)C(=O)N[C@H](CO)C(=O)N[C@@H](C(=O)N[C@H](CO)C(=O)N[C@H](CCC(=O)O)C(=O)N[C@@H](C(=O)N[C@H](CCC(N)=O)C(=O)N[C@H](CC(C)C)C(=O)N[C@H](CCSC)C(=O)N[C@H](Cc1c[nH]cn1)C(=O)N[C@H](CC(N)=O)C(=O)N[C@H](CC(C)C)C(=O)NCC(=O)N[C@H](CCCCN)C(=O)N[C@H](Cc1c[nH]cn1)C(=O)N[C@H](CC(C)C)C(=O)NCC(=O)N[C@H](CO)C(=O)N[C@H](CCSC)C(=O)N[C@H](CCC(=O)O)C(=O)N[C@H](CCCNC(=N)N)C(=O)N[C@@H](C(=O)N[C@H](Cc1ccccc1)C(=O)N[C@H](C)C(=O)N[C@H](CC(C)C)C(=O)N[C@H](CCCNC(=N)N)C(=O)N[C@H](Cc1ccccc1)C(=O)N[C@H](CCCCN)C(=O)N[C@H](CC(C)C)C(=O)N[C@H](CCC(N)=O)C(=O)N[C@H](CC(C)C)C(=O)N[C@@H](C(N)=O)[C@H](C)CC)C(C)C)[C@H](C)CC)C(C)C | hemagglutinin influenza A/California/07/2009 H1N1 | – | – | – | – | Ki | 29 µM
CCCCCCCC[C@H]1O[C@H]1C/C=C/C=C/[C@H](O)CC(=O)NC1=C[C@](C)(CC)OC1=O | Na(+)-translocating NADH-quinone reductase subunit B, whole Na+-NQR complex (nqrB, Vibrio cholerae serotype O1, UniProt Q9KPS2, R151A) | enzyme activity, inhibitor | – | NqrB-R151A mutant | – | IC50 | < 0.01 µM
OC1(c2ccc(Cl)cc2)c2ccccc2C2=NCCN21 (stereo not drawn) | snf (Aquifex aeolicus, UniProt O67854, G24D/I359G/N21Y/S256G/T254S/Y265F) | saturation binding | – | – | – | Kd | 0.318 ± 0.01 µM
CC1=NNC(=O)N(/N=C/c2cccnc2)C1 | Nan-Iav channel Halyomorpha halys | binding | – | – | – | Ki | 0.0285 µM
Brc1ccc2c(c1)C(c1ccccn1)=NCc1c(-c3cnco3)ncn1-2 | GABRG2/GABRA2, with β3 subunit (Homo sapiens, UniProt P18507+P47869) | – | – | – | – | IC50 | 0.32 µM
C[C@@H](Cc1ccccc1)N(C)Cc1ccccc1 | Alpha-2B adrenergic receptor (ADRA2B, Homo sapiens, UniProt P18089) | inhibitor | – | – | – | IC50 | 2.81 µM
CNC(C)Cc1ccc2c(c1)OCO2 (stereo not drawn) | Solute carrier family 22 member 1 (SLC22A1, Homo sapiens, UniProt O15245) | – | – | – | – | IC50 | 2.8 ± 2.1 µM
C#CC[C@@H](N)C(=O)N[C@H](CCC(N)=O)C(=O)NCC(=O)N[C@H](CC(C)C)C(=O)NCC(=O)N[C@H](CC)C(=O)N[C@H](CC(=O)O)C(=O)N[C@H](CCC(=O)O)C(=O)N[C@H](CC(N)=O)C(=O)N[C@H](CC(C)C)C(=O)N[C@H](CCC(N)=O)C(=O)NCC(=O)N[C@H](Cc1ccccc1)C(=O)N[C@H](C)C(=O)N[C@@H](C(=O)N[C@H](C)C(=O)N[C@@H](C(=O)N[C@H](CCCCN)C(=O)N[C@H](CCSC)C(=O)NCC(=O)N[C@H](C)C(=O)N[C@H](Cc1ccc(O)cc1)C(=O)N[C@H](CCCCN)C(=O)N[C@H](C)C(=O)N[C@H](Cc1c[nH]c2ccccc12)C(=O)O)C(C)C)C(C)C | hemagglutinin influenza A/California/07/2009 H1N1 | – | – | – | – | Ki | > 58 µM
Nc1ncnc2c1ncn2[C@@H]1O[C@H](COP(=O)(O)OP(=O)(O)OP(=O)(O)O)[C@@H](O)[C@H]1O | Hepatocyte growth factor receptor (MET, Homo sapiens, UniProt P08581, C1091S/C1146S/K1232C) | binding | – | – | – | Kd | 156 ± 6 µM
CNC(C)C(=O)c1ccc2c(c1)OCO2 (stereo not drawn) | Sodium-dependent dopamine transporter (Slc6a3, Rattus norvegicus, UniProt P23977) | – | – | rat | – | IC50 | 1.08 ± 0.06 µM
O=C(N[C@H](CO)[C@H](O)c1ccc([N+](=O)[O-])cc1)C(Cl)Cl | Multidrug resistance protein MdtM (mdtM, Salmonella typhi, UniProt Q8XFG0) | – | – | – | – | Kd | 0.617 ± 0.021 µM
COC(=O)Cc1ccccc1 | uncharacterized protein (Bradysia odoriphaga, UniProt A0A2S0X9G4) | binding, competitive fluorescence displacement | – | – | – | Ki | > 50 µM
COC(=O)CCOC(=O)c1cncn1[C@H](C)c1ccccc1 | GABA-A receptor alpha-1/beta-3, with gamma-2 subunit (GABRA1/GABRB3, Homo sapiens, UniProt P14867+P28472, L291T) | direct receptor activation, agonist, two-electrode voltage clamp | Xenopus oocytes | – | reference: 100 µM GABA current | EC50 | 20 µM
CC(NC(C)(C)C)C(=O)c1cccc(Cl)c1 (stereo not drawn) | Nuclear receptor subfamily 2 group C member 2, ligand-binding domain (Homo sapiens, UniProt P49116) | SPR imaging | – | – | – | Kd | 0.0238 µM
OCCCCO | Cytochrome P450 2E1 (CYP2E1, Homo sapiens, UniProt P05181) | inhibitor | – | 30 min, pH 7.4 | – | IC50 | 15000 µM
CC[C@@H](NC(=O)CNC(=O)[C@@H](CC(C)C)NC(=O)CNC(=O)[C@H](N)CCC(N)=O)C(=O)N[C@H](CC(=O)O)C(=O)N[C@H](CCC(=O)O)C(=O)N[C@H](CCSC)C(=O)N[C@H](CC(C)C)C(=O)N[C@H](CCC(N)=O)C(=O)NCC(=O)N[C@H](Cc1ccccc1)C(=O)N[C@H](C)C(=O)N[C@@H](C(=O)N[C@H](C)C(=O)N[C@@H](C(=O)N[C@H](CCCCN)C(=O)N[C@H](CCSC)C(=O)NCC(=O)N[C@H](C)C(=O)N[C@@H](C(=O)N[C@H](CCCCN)C(=O)N[C@H](C)C(=O)N[C@H](CC(=O)O)C(=O)O)[C@H](C)O)C(C)C)C(C)C | hemagglutinin influenza A/California/07/2009 H1N1 | – | – | – | – | Ki | 19 µM
CCCc1cc(O)c2c(c1)OC(C)(C)[C@@H]1CCC(C)=C[C@@H]21 | Transient receptor potential cation channel subfamily V member 3 (TRPV3, Homo sapiens, UniProt Q8NET8, A560L) | calcium uptake, agonist | HEK293S | mutant A560L, site 1 | – | EC50 | 3.59 ± 0.19 µM
C#CC[C@@H](N)C(=O)N[C@H](CO)C(=O)N[C@@H](C(=O)N[C@H](CO)C(=O)N[C@H](CCC(=O)O)C(=O)N[C@@H](C(=O)N[C@H](CCC(N)=O)C(=O)N[C@H](CC(C)C)C(=O)N[C@H](CCSC)C(=O)N[C@H](Cc1c[nH]cn1)C(=O)N[C@H](CC(N)=O)C(=O)N[C@H](CC(C)C)C(=O)NCC(=O)N[C@H](CCCCN)C(=O)N[C@H](Cc1c[nH]cn1)C(=O)N[C@H](CC(C)C)C(=O)NCC(=O)N[C@H](CO)C(=O)N[C@H](Cc1c[nH]c2ccccc12)C(=O)N[C@H](CCC(=O)O)C(=O)N[C@H](CCCNC(=N)N)C(=O)N[C@@H](C(=O)N[C@H](Cc1ccc(O)cc1)C(=O)N[C@H](Cc1ccccc1)C(=O)N[C@H](CC(C)C)C(=O)N[C@H](CCCNC(=N)N)C(=O)N[C@H](Cc1ccccc1)C(=O)N[C@H](CCCCN)C(=O)N[C@H](CC(C)C)C(=O)N[C@H](CCC(N)=O)C(=O)N[C@H](CC(C)C)C(=O)N[C@@H](C(N)=O)C(C)C)C(C)C)[C@H](C)CC)C(C)C | hemagglutinin influenza A/California/07/2009 H1N1 | – | – | – | – | Ki | 32 µM
O=C(Cc1ccc(I)cc1)N[C@H]1CCOC1=O | expR | – | – | – | – | IC50 | 0.7 µM
CC[C@@H](NC(=O)CNC(=O)[C@@H](Cc1ccccc1)NC(=O)CNC(=O)[C@H](N)CCC(N)=O)C(=O)N[C@H](CC(=O)O)C(=O)N[C@H](CCC(=O)O)C(=O)N[C@H](CCSC)C(=O)N[C@H](CC(C)C)C(=O)N[C@H](CCC(N)=O)C(=O)NCC(=O)N[C@H](Cc1ccccc1)C(=O)N[C@H](C)C(=O)N[C@@H](C(=O)N[C@H](C)C(=O)N[C@@H](C(=O)N[C@H](CCCCN)C(=O)N[C@H](CCSC)C(=O)NCC(=O)N[C@H](C)C(=O)N[C@H](Cc1ccc(O)cc1)C(=O)N[C@H](CCCCN)C(=O)N[C@H](C)C(=O)N[C@H](Cc1c[nH]c2ccccc12)C(=O)O)C(C)C)C(C)C | hemagglutinin influenza A/California/07/2009 H1N1 | – | – | – | – | Ki | 8 µM
CSc1cccc(CC(=O)N[C@H]2CCOC2=O)c1 | expR | – | – | – | – | IC50 | 2.25 µM

Excerpt of the above:
SMILES | target | assay | system | setting | how to read | endpoint | result
CNC(C)C(=O)c1ccc2c(c1)OCO2 (stereo not drawn) | Sodium-dependent dopamine transporter (Slc6a3, Rattus norvegicus, UniProt P23977) | – | – | rat | – | IC50 | 1.08 ± 0.06 µM
O=C(N[C@H](CO)[C@H](O)c1ccc([N+](=O)[O-])cc1)C(Cl)Cl | Multidrug resistance protein MdtM (mdtM, Salmonella typhi, UniProt Q8XFG0) | – | – | – | – | Kd | 0.617 ± 0.021 µM
